Measurements gathered from unrelated publications.
Technique: steady-state kinetics
B1: Hpo (Pseudomonas putida, UniProt F8G0M1); chain MDHVSFTEICLRQLKMSGVHEGERLIVLTQGHERLAYADAFMAAGQRLGAEMYHMRLPSPLPSNGWAVGVTGLADLPGAVEALKNCDMLIDCVFLLFSAEQFEIQAAGTRILTAVEPPELLARMLPFPELREKVSIAAELVENAKDMRITSPHGTDITYKLNTYPTIAEYACTDTPGRWDHWPSGFVFTGGDDDGVDGTIVVAPGDVLLPQNLMVREPITYTIEKGWIVDIRGGLEAQIVNSYMDSFNDPRGKGMSHVGWGMNPHAKWHNFVPGQFTGGMGMELRSFYGNVMFSTGPNNELGGSNDTACHLDIPMRNCSLFLDDTPVVIDGDIVVKEIQLVQR
B2: Saccharopine reductase C154S (Saccharomyces cerevisiae, UniProt P38999); chain MGKNVLLLGSGFVAQPVIDTLAANDDINVTVACRTLANAQALAKPSGSKAISLDVTDDSALDKVLADNDVVISLIPYTFHPNVVKSAIRTKTDVVTSSYISPALRELEPEIVKAGITVMNEIGLDPGIDHLYAVKTIDEVHRAGGKLKSFLSYSGGLPAPEDSDNPLGYKFSWSSRGVLLALRNSAKYWKDGKIETVSSEDLMATAKPYFIYPGYAFVCYPNRDSTLFKDLYHIPEAETVIRGTLRYQGFPEFVKALVDMGMLKDDANEIFSKPIAWNEALKQYLGAKSTSKEDLIASIDSKATWKDDEDRERILSGFAWLGLFSDAKITPRGNALDTLCARLEELMQYEDNERDMVVLQHKFGIEWADGTTETRTSTLVDYGKVGGYSSMAATVGYPVAIATKFVLDGTIKGPGLLAPYSPEINDPIMKELKDKYGIYLKEKTVA
B3: carbamoyl phosphate synthetase large subunit M911E (Escherichia coli, UniProt P00968); chain PKRTDIKSILILGAGPIVIGQACEFDYSGAQACKALREEGYRVILVNSNPATIMTDPEMADATYIEPIHWEVVRKIIEKERPDAVLPTMGGQTALNCALELERQGVLEEFGVTMIGATADAIDKAEDRRRFDVAMKKIGLETARSGIAHTMEEALAVAADVGFPCIIRPSFTMGGSGGGIAYNREEFEEICARGLDLSPTKELLIDESLIGWKEYEMEVVRDKNDNCIIVCSIENFDAMGIHTGDSITVAPAQTLTDKEYQIMRNASMAVLREIGVETGGSNVQFAVNPKNGRLIVIEMNPRVSRSSALASKATGFPIAKVAAKLAVGYTLDELMNDITGGRTPASFEPSIDYVVTKIPRFNFEKFAGANDRLTTQMKSVGEVMAIGRTQQESLQKALRGLEVGATGFDPKVSLDDPEALTKIRRELKDAGADRIWYIADAFRAGLSVDGVFNLTNIDRWFLVQIEELVRLEEKVAEVGITGLNADFLRQLKRKGFADARLAKLAGVREAEIRKLRDQYDLHPVYKRVDTCAAEFATDTAYMYSTYEEECEANPSTDREKIMVLGGGPNRIGQGIEFDYCCVHASLALREDGYETIMVNCNPETVSTDYDTSDRLYFEPVTLEDVLEIVRIEKPKGVIVQYGGQTPLKLARALEAAGVPVIGTSPDAIDRAEDRERFQHAVERLKLKQPANATVTAIEMAVEKAKEIGYPLVVRPSYVLGGRAMEIVYDEADLRRYFQTAVSVSNDAPVLLDHFLDDAVEVDVDAICDGEMVLIGGIMEHIEQAGVHSGDSACSLPAYTLSQEIQDVMRQQVQKLAFELQVRGLMNVQFAVKNNEVYLIEVNPRAARTVPFVSKATGVPLAKVAARVMAGKSLAEQGVTKEVIPPYYSVKEVVLPFNKFPGVDPLLGPEERSTGEVMGVGRTFAEAFAKAQLGSNSTMKKHGRALLSVREGDKERVVDLAAKLLKQGFELDATHGTAIVLGEAGINPRLVNKVHEGRPHIQDRIKNGEYTYIINTTSGRRAIEDSRVIRRSALQYKVHYDTTLNGGFATAMALNADATEKVISVQEMHAQIK
B4: enzyme M56A (Micromonospora griseorubida, UniProt Q49492); chain MSPSTGVELYLDLLKRTVSNFIYQDATHVAGLITEAAFVEEARESGEDYPTVAHTAIGMKRLNNLQHCVESALRDGVPGDVLETGVWRGGACIFARGILKAYDVRDRTVWVADSFQGFPKITDDDHPMDAEMNLHQYNEAVDLPTSLATVQRNFSRYGLLDDQVRFLPGWFKDTMPTAPFERLAVLRMDGDSYGATMDVLTHAYPRLSPGGFAIIDDYCIPACREAVHEYRDRHGISDEIVEIDRQGVYWRRSA
B5: PRP43 F357A (Saccharomyces cerevisiae, UniProt P53131); chain MGSKRRFSSEHPDPVETSIPEQAAEIAEELSKQHPLPSEEPLVHHDAGEFKGLQRHHTSAEEAQKLEDGKINPFTGREFTPKYVDILKIRRELPVHAQRDEFLKLYQNNQIMVFVGETGSGKTTQIPQFVLFDEMPHLENTQVACTQPRRVAAMSVAQRVAEEMDVKLGEEVGYSIRFENKTSNKTILKYMTDGMLLREAMEDHDLSRYSCIILDEAHERTLATDILMGLLKQVVKRRPDLKIIIMSATLDAEKFQRYFNDAPLLAVPGRTYPVELYYTPEFQRDYLDSAIRTVLQIHATEEAGDILLFLTGEDEIEDAVRKISLEGDQLVREEGCGPLSVYPLYGSLPPHQQQRIAEPAPESHNGRPGRKVVISTNIAETSLTIDGIVYVVDPGFSKQKVYNPRIRVESLLVSPISKASAQQRAGRAGRTRPGKCFRLYTEEAFQKELIEQSYPEILRSNLSSTVLELKKLGIDDLVHFDFMDPPAPETMMRALEELNYLACLDDEGNLTPLGRLASQFPLDPMLAVMLIGSFEFQCSQEILTIVAMLSVPNVFIRPTKDKKRADDAKNIFAHPDGDHITLLNVYHAFKSDEAYEYGIHKWCRDHYLNYRSLSAADNIRSQLERLMNRYNLELNTTDYESPKYFDNIRKALASGFFMQVAKKRSGAKGYITVKDNQDVLIHPSTVLGHDAEWVIYNEFVLTSKNYIRTVTSVRPEWLIEIAPAYYDLSNFQKGDVKLSLERIKEKVDRLNELKQGKNKKKSKHSKK
B6: protein F222G (Planktothrix agardhii, UniProt F5B6Z0); chain MIVNVIQKDRLKEQKLQFIRNHQQAFDVEPIYPLPLFEDFVTSIEGDCSLEASCKIESDKLIASRFLLFFEDKTQEWQKYLHQSLTFFGLVENRVGVKINYSLLQQFLGSSFDFSKVTVLSAGIDLRNNLAESSLKMHIRIKDYPEKLDKAFALSDGAADGNYLKDFVNLIGFDFYFNGKSEIEIYAEVQEDDFFKPEINNLVWQHFPKTALQPLKASSLFGTGLSKANNNPVLYYHLKNRQDLTNYFKLNDTAQRVHSFYQHQDILPYMWVGTAQKELEKTRIENIRLYYYKSFKMESN
B7: UGT3A2 Y474C (Homo sapiens, UniProt Q3SY77); chain AKILTISTVGGSHYLLMDRVSQILQDHGHNVTMLNHKRGPFMPDFKKEEKSYQVISWLAPEDHQREFKKSFDFFLEETLGGRGKFENLLNVLEYLALQCSHFLNRKDIMDSLKNENFDMVIVETFDYCPFLIAEKLGKPFVAILSTSFGSLEFGLPIPLSYVPVFRSLLTDHMDFWGRVKNFLMFFSFCRRQQHMQSTFDNTIKEHFTEGSRPVLSHLLLKAELWFINSDFAFDFARPLLPNTVYVGGLMEKPIKPVPQDLENFIAKFGDSGFVLVTLGSMVNTCQNPEIFKEMNNAFAHLPQGVIWKCQCSHWPKDVHLAANVKIVDWLPQSDLLAHPSIRLFVTHGGQNSIMEAIQHGVPMVGIPLFGDQPENMVRVEAKKFGVSIQLKKLKAETLALKMKQIMEDKRYKSAAVAASVILRSHPLSPTQRLVGWIDHVLQTGGATHLKPCVFQQPWHEQYLLDVFVFLLGLTLGTLWLCGKLLGMAVWWLRGARKVKET
B8: Cop6 (Coprinopsis cinerea, UniProt A8NCK5); chain MPAALPYNVSRDNKWDIKKIIQDFFKRCDVPYQVIPYDTELWNACLKRAKEKGYPVEPDSPMSLYRSFKVGVVITRTSYGHIQDYEILIWVATFTAFVTYADDAFQEDIQHLHSFARTFLQNEKHEHPVLEAFAQFLRESSIRFSHFVANTVVSSALRFMMSIALEFEGQNVSVSTEAREYPGYIRILSGLSDIYALFAFPMDLPRSTYIQAFPEQIDYINGTNDLLSFYKEELDCETVNFISAAATSQQVSKLEVLRNAAEKAAYSYDVVVNVLKPYPEALAAWKSFARGFCYFHTSSPRYRLGEMFHDFEHDLVCKCASCTEI
B9: HCT R356E (Coleus scutellarioides, UniProt E8ZAP2); chain MKIHVRDSTLVRPSAATPAVSLWNSNVDLVVPNFHTPSVYFYRPSGADNFFDTAVMKAALGRALVSFYPMAGRLKRDEDGRVEIDCNAEGVLFVEAESDGTVDDYGDFAPSLELRRLIPAVDYSQGISAYPLLVLQVTFFKCGGVSLGVGMQHHAADGFSGLHFINTWSDMARGLDITLPPFIDRTLLSARDPPQPQFKHVEYQPPPAMKTYEPAETVVSIFKLTKDQLTTLKAKSKEDGNTTTYSSYEMLSGHVWRCTCLARGLPEEQETKLYIATDGRSRLQPQLPPGYFGNVIFTATPLAVAGDLGSKPVWYAASKIHDALARMDNDYLRSALDFLELQPDLKALVRGAHTFECPNLGITSWVRLPIHDADFGWGRPIFMGPGGIAYEGLSFVLPSPTNDGSLSVAISLQAEHMKLFEKLLYQI
B10: enzyme (Caenorhabditis elegans, UniProt Q19834); chain MTAEKEPLKSREGDEAPQNETEGKGKGLEKSLTLFNGVSMIVGCIIGSGIFVSPTGVQEQAGSVGLSLIVWLISGIFTAIGAYCYAELGTLIKKSGGDYAYIMEAFGPFVAFIRLWIEAIVVRPCTVTIVALTFAIYGLRPFFPDCAPPDVVAELLAILLIVLMTAINCISVRLATIVQDWFTIAKVVALCLIILTGLGLLFFGESQYKDSFENIFENTSQDFTKVSLAFYSGLFAYSGWNFLNFIVEELQNPKRNLPLAIAISITSCTVIYVLTNVALYTAISPDEMLESPAVAVLFANKLYGKFAFIMPLCVACSTIGSANGVIFTSARLFYSGAREGQMPAVLTMINKKTKTPIPAVILTGALSIAYLLASKDVYQLINYIQISYWLAIGTAIAALFWLRRTMPDASRPIKVPLIWPAIFLAGCIALVLIPMVAAPRDTGIGLLIMLSAVPVYGIFIGWKNKPKWFNEFIDSSTVFIQKLFMVVDEDKED
Chain of UniProt Q9UYB2 (whole entry, looked up): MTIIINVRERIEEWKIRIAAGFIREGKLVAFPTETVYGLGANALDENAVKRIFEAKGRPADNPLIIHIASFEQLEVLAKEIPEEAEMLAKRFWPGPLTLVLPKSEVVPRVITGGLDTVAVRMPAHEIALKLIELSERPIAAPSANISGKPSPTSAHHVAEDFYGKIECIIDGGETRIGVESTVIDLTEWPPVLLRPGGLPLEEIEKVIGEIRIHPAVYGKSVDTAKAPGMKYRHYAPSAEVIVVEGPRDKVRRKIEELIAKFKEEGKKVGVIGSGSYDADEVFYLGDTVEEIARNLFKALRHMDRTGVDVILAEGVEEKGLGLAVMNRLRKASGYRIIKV

B1 (Hpo)  Km (Oc1ccc(O)nc1; pH 7.5, 20 °C, added: O2; Fe2+ 0.025 mM): 138 µM
B2 (Saccharopine reductase C154S)  Km (N[C@@H](CCC(=O)O)C(=O)O; pH 7, 25 °C, added: NADPH, AASA): 67000 µM
B3  Km (Nc1ncnc2c1ncn2[C@@H]1O[C@H](COP(=O)(O)OP(=O)(O)OP(=O)(O)O)[C@@H](O)[C@H]1O; pH 7.6, KCl 100 mM, added: glutamine 10 mM, ornithine 10 mM): 1000 µM
B4 (enzyme M56A)  Km (CC[C@H]1OC(=O)/C=C/[C@H](C)[C@@H](O[C@@H]2O[C@H](C)C[C@H](N(C)C)[C@H]2O)[C@@H](C)C[C@@H](C)C(=O)/C=C/C=C/[C@@H]1CO[C@@H]1O[C@H](C)[C@@H](O)[C@@H](O)[C@H]1OC): 6.4 µM
Sua5 (Pyrococcus abyssi, UniProt Q9UYB2)  Km (C[C@@H](O)[C@H](N)C(=O)O; pH 8, 50 °C, KCl 35 mM, added: ATP, Mg2+, Mn2+, L-threonine 3–150 µM): 11.5 µM
B5 (PRP43 F357A)  Km (Nc1ccn([C@@H]2O[C@H](COP(=O)(O)OP(=O)(O)OP(=O)(O)O)[C@@H](O)[C@H]2O)c(=O)n1; pH 8, KCl 100 mM, without Pfa1, added: polyA 0.2 mM, magnesium acetate 2.5 mM): 175 µM
B6 (protein F222G)  Km (CC(C)=CCC/C(C)=C/COP(=O)(O)OP(=O)(O)O; added: tri-Tyr peptide acceptor): 370 µM
B7 (UGT3A2 Y474C)  Km (O=c1ccn([C@@H]2O[C@H](CO[P@@](=O)(O)O[P@@](=O)(O)O[C@H]3O[C@H](CO)[C@@H](O)[C@H](O)[C@H]3O)[C@@H](O)[C@H]2O)c(=O)[nH]1; pH 7.4, 37 °C, not purified, added: 1-OH-pyrene 16 µM, MgCl2 10 mM, alamethicin): 3130 µM
B8 (Cop6)  Km (CC(C)=CCC/C(C)=C/COP(=O)(O)OP(=O)(O)O; pH 8, 30 °C, added: MgCl2 10 mM): 1.5 µM
B9 (HCT R356E)  Km (NCCc1ccc(O)c(O)c1; pH 8, pseudo-first-order, added: p-coumaroyl CoA): 41600 µM
AphC (Rhodococcus jostii, UniProt Q0S9X1)  Km (Oc1ccccc1O; pH 8, 25 °C, apparent, added: O2): 47 µM
B10 (enzyme)  Km (Nc1ccccc1C(=O)C[C@H](N)C(=O)O; not purified): 40.1 µM
enzyme (Oenococcus oeni, UniProt Q04DP9)  Km (O=[N+]([O-])c1ccc(O[C@@H]2O[C@H](CO)[C@@H](O)[C@H](O)[C@H]2O)cc1; pH 5.5, 37 °C): 170 µM

Some of these lines once more:
Sua5 (Pyrococcus abyssi, UniProt Q9UYB2)  Km (C[C@@H](O)[C@H](N)C(=O)O; pH 8, 50 °C, KCl 35 mM, added: ATP, Mg2+, Mn2+, L-threonine 3–150 µM): 11.5 µM
B5 (PRP43 F357A)  Km (Nc1ccn([C@@H]2O[C@H](COP(=O)(O)OP(=O)(O)OP(=O)(O)O)[C@@H](O)[C@H]2O)c(=O)n1; pH 8, KCl 100 mM, without Pfa1, added: polyA 0.2 mM, magnesium acetate 2.5 mM): 175 µM
